Measured values pooled from the literature.
± marks the error that the study gave.

COc1ccc2nc(-c3ccccn3)c(N(C)c3ccc(F)cc3)n2c1  AUC(0-last) (CD1 mouse, male, fasted, plasma; oral, 50 mg/kg, added: ABT 50 mg/kg): 0.866 µg·h/mL
C[C@H]1CNCCN1c1nccc(-c2noc3c2CCC[C@@]32CCCc3sc(N)c(C#N)c32)n1  AUC(0-last) (mouse, plasma; po, 50 mg/kg): 42.3 µM·h
COc1ccc2c3c1O[C@H]1C[C@@H](OC(=O)c4ccccc4)C=C[C@@]31CCN(C)C2  AUC(0-last) (Swiss albino mouse, brain; intravenous, 3.0 mg/kg): 151000 ng·min/g
Cc1ccc2c(c1)C(=O)[C@]1(O)CCN(c3ccc4nc(C)ccc4c3)C1=N2.Cl  AUC(0-last) (mouse, brain; subcutaneous, 5 mg/kg): 5.4 ± 0.8 µM·h
O=C(COc1cnc(N2C(=O)[C@@H]3[C@@H]4C=C[C@@H]([C@H]5C[C@@H]45)[C@@H]3C2=O)nc1)c1ccc(Cl)c(Cl)c1  AUC(0-last) (mouse, brain; ip, 10 mg/kg): 83800 ng·min/g
CC[C@H](C)[C@@H]1NC(=O)[C@@](C)(NC(=O)[C@H](CCCNC(=N)N)NC(=O)[C@H](CC(C)C)NC(=O)[C@@H](NC(=O)[C@H](CCC(N)=O)NC(=O)[C@H](CC(C)C)NC(C)=O)[C@@H](C)O)CCCC=CCCC[C@@](C)(C(=O)N[C@@H](CC(C)C)C(=O)N[C@@H](Cc2ccc3ccccc3c2)C(N)=O)NC(=O)[C@H](CCCNC(=N)N)NC(=O)[C@H](CCC(N)=O)NC1=O  AUC(0-last) (male BALB/c mouse, plasma; intramuscular, 5 mg/kg): 44.9 µg·h/mL
O=C(COc1ccc(N2C(=O)[C@@H]3[C@@H]4C=C[C@@H]([C@H]5C[C@@H]45)[C@@H]3C2=O)cc1)c1cc(Cl)cc(Cl)c1  AUC(0-last) (mouse, brain; ip, 10 mg/kg): 720000 ng·min/g
O=C(NO)c1ccc(CN(c2cnccn2)c2cnccn2)cc1  AUC(0-last) (measured: total compound; male C57BL/6 mouse, B16-F10 tumour, plasma; oral, 200 mg/kg once daily): 1.27 µg·h/mL

A few entries again:
Cc1ccc2c(c1)C(=O)[C@]1(O)CCN(c3ccc4nc(C)ccc4c3)C1=N2.Cl  AUC(0-last) (mouse, brain; subcutaneous, 5 mg/kg): 5.4 ± 0.8 µM·h
